Published values gathered from unrelated publications.
Lines come from different studies, so protocols differ. “And” joins repeats or separate records; there may be more than shown. Numbers after ± are the reported error.
DHODH: Dihydroorotate dehydrogenase (quinone), mitochondrial (DHODH, Homo sapiens, UniProt Q02127)
SRC SH3-SH2-kinase domain: Proto-oncogene tyrosine-protein kinase Src, SH3-SH2-kinase domain (SRC, Gallus gallus, UniProt P00523)
TACR1: Substance-P receptor (TACR1, Homo sapiens, UniProt P25103)
FGFR3: Fibroblast growth factor receptor 3 (FGFR3, Homo sapiens, UniProt P22607)
Genome polyprotein NS3 helicase domain: Genome polyprotein, NS3 helicase domain (Hepatitis C virus genotype 1b, UniProt Q9WMX2)

Structure (SMILES)	target	assay	system	conditions	IC50
Cc1c(-c2ccc(Cc3ccc(OC(F)(F)F)cc3)cc2)[nH]c2cccc(F)c2c1=O	DHODH	enzyme activity, inhibitor			3 µM
CN1C(=O)[C@H](Cc2ccc(F)cc2)NC(=O)[C@H](CC2CCCCC2)NC(=O)/C=C/C(=O)N[C@H](C(=O)O)CCCNC(=O)[C@@H]1Cc1ccc([N+](=O)[O-])cc1	SRC SH3-SH2-kinase domain	enzyme activity, inhibitor, Z'-LYTE FRET		Src residues 83-533, added: 50 µM ATP	0.16 ± 0.006 µM
CC(C)C[C@H](NC(=O)[C@H](Cc1c[nH]cn1)NC(=O)[C@H](CC(=O)O)NC(=O)[C@H](CCCNC(=N)N)NC(=O)[C@H](CO)NC(=O)[C@@H]1CCCN1C(=O)[C@H](CCCNC(=N)N)NC(=O)[C@H](CCC(=O)O)NC(=O)[C@H](C)NC(=O)[C@@H](N)Cc1ccc(O)cc1)C(=O)N[C@@H](Cc1ccc(O)cc1)C(=O)N[C@@H](CC(C)C)C(=O)N1CCC[C@H]1C(=O)N[C@@H](CC(C)C)C(=O)N[C@@H](CCC(=O)O)C(=O)N1CCC[C@H]1C(=O)O	Mitogen-activated protein kinase 14 (Rattus norvegicus, UniProt P70618, E160S/E163T/N159K)	kinase activity, inhibitor, competitive kinase			> 100 µM
CN1C(=O)/C(=C2\Nc3ccccc3C2=O)c2cccc(Br)c21	Cyclin-dependent kinase 5, with p25 (CDK5, Homo sapiens, UniProt Q00535)				> 10 µM
NC(=O)[C@@H]1CCNC(=O)[C@H](CCCNC(=O)c2cnccn2)NC(=O)[C@H](CC2CCCCC2)NC(=O)[C@H](C/C=C/c2ccccc2)NC(=O)/C=C\C(=O)N1	SRC SH3-SH2-kinase domain	kinase activity, inhibitor		added: ATP 5 µM	27 µM
CCC(=O)N1CCN(c2ccc(N(C)C(=O)C(C)(C)c3cc(C(F)(F)F)cc(C(F)(F)F)c3)c(-c3ccccc3C)c2)CC1	TACR1	nuclear ERK activity, antagonist, FRET biosensor	HEK293T	30 to 90 min preincubation, added: substance P 10 nM	0.347 µM
COc1cc(OC(C)=O)c2cc3c(cc2c1OC(C)=O)CCCC3(C)C	DNA topoisomerase IB (Leishmania donovani, UniProt A0A3Q8IHS4+Q8WQM6)	DNA relaxation activity, inhibitor		added: supercoiled plasmid DNA	> 100 µM
O=C1NC(=O)/C(=C/c2ccc(C(=O)NC[C@@H]3C[C@@H](SC(c4ccccc4)(c4ccccc4)c4ccccc4)CN3C(=O)c3ccccc3C(=O)c3ccc(F)cc3F)cc2)S1	PLA2G4A (Homo sapiens, UniProt P47712)	enzyme activity, inhibitor, radiometric			1.23 µM
C=CCC(=N)NCCC[C@H](N)C(=O)O	Nitric oxide synthase 3 (Rattus norvegicus, UniProt Q62600)	cGMP accumulation	rat aortic rings	25 min preincubation, added: acetylcholine 10 µM	0.9 ± 0.1 µM
Cc1ccccc1-c1cc(N2CCN(CCCN3C(=O)C=CC3=O)CC2)ccc1N(C)C(=O)C(C)(C)c1cc(C(F)(F)F)cc(C(F)(F)F)c1	TACR1	IP1 accumulation, antagonist, HTRF		90 min preincubation, added: substance P 10 nM	0.209 µM
CN1C[C@H](c2cccc(C(F)(F)F)c2)[C@@H](C(=O)Nc2ccccc2F)C1=O	DHODH	enzyme activity, inhibitor, absorbance			0.38 µM
O=C(Cn1nc(C(F)(F)F)c2c1CCCC2)Nc1ccccc1	Trypanothione synthetase (Trypanosoma brucei, UniProt Q586P2)	enzyme activity, inhibitor			> 100 µM
CN=c1nc(-c2ccccc2)n(-c2ccccc2)s1	Trypanothione synthetase (Trypanosoma brucei brucei, UniProt Q586P2)	enzyme activity, BIOMOL Green phosphate release		1 h preincubation	3.7 µM and 4 µM
CCC(NC(=O)C(CC(C)C)NC(=O)NCc1ccccc1)C(=O)C(=O)NCc1cc(F)cc(OC)c1 (centres unmarked)	Calpain-2 catalytic subunit (Capn2, Mus musculus, UniProt O08529)	enzyme activity, inhibitor	mouse pons-cerebellum membranes	added: calcium 2 mM	0.092 µM
NNc1nc2cc3ccccc3cc2c(=O)n1-c1ccccc1	Genome polyprotein, protease (Hepatitis C virus genotype 1b, UniProt O92972)	enzyme activity, inhibitor, FRET			34 µM
CC(C)NCc1ccc(C[C@@H]2NC(=O)[C@@H](Cc3c[nH]c4ccccc34)NC(=O)[C@H](Cc3ccc(O)cc3)NC(=O)[C@H](NC(=O)[C@@H](N)Cc3ccc(Cl)cc3)CSSC[C@@H](C(=O)N[C@@H](Cc3ccc4ccccc4c3)C(N)=O)NC(=O)[C@H]([C@@H](C)O)NC2=O)cc1	SSTR5 (Homo sapiens, UniProt P35346)	ligand displacement, radioligand		cell membranes	> 1 µM
COc1ccc(NC(=O)N2CCCN3CCC(c4ccc(C#Cc5ccccc5)cc4)C3C2)cc1 (centres unmarked)	phenylalanine-tRNA ligase (Toxoplasma gondii, UniProt A0A125YPN6+S8EZ50)	aminoacylation, inhibitor, malachite green		added: 50 µM L-phenylalanine, 100 µM ATP	0.42 µM
CCNC(=S)NCC	Urea transporter 2 (Rattus norvegicus, UniProt Q62668)	urea transport, inhibitor	MDCK expressing rat UT-A1	20 min	> 25000 µM
N#Cc1c(-c2ccc(Cl)cc2)cc(-c2cccs2)nc1SCC(=O)NCC(=O)O	KAT2A (Homo sapiens, UniProt Q92830)	enzyme activity, inhibitor, radiometric			9.1 µM
CCCCCCCCCCCCCCCCCC(=O)OCC(O)COC1OC(CS(=O)(=O)O)C(O)C(O)C1O (centres unmarked)	DNA polymerase (POLA1, Bos taurus, UniProt A0AAA9TD94)	enzyme activity, inhibitor, radiometric			1.6 µM and 2.1 µM
CC(C)c1ccc(CN2CCN(CC(=O)c3ccc4[nH]c(=O)[nH]c4c3)CC2)cc1	APOBEC3G (Homo sapiens, UniProt Q9HC16)	enzyme activity, inhibitor		pH 6	70 µM
S=c1[nH]nc(Cn2nnc3ccccc32)n1/N=C/c1ccco1	Xanthine dehydrogenase/oxidase, oxidase form (XDH, Bos taurus, UniProt P80457)	enzyme activity, inhibitor			≤ 307 µM
N#Cc1cccc(CN2C[C@@H]3C[C@H](C2)c2c(-c4ccc5ccccc5c4)ccc(=O)n2C3)c1	PLK2 (Homo sapiens, UniProt Q9NYY3)	ligand displacement, FP			95.5 µM
COc1cccc(Cc2c[nH]c3ncc(C(F)(F)F)cc23)c1	FGFR3	enzyme activity, inhibitor			0.421 µM

Structure (SMILES)	target	assay	system	conditions	IC50
COC1CCC(Nc2nc(-c3nccn3C)nc3sc(-c4ccn(C)n4)c(-c4ccccc4)c23)C1 (centres unmarked)	RHOA (Homo sapiens, UniProt P61586)	GTP binding, inhibitor, cell-free GTP competition		added: fluorescent GTP 100 nmol/L	3 µM
Cc1ccc2nc(-c3ccc(N)cc3)sc2c1S(=O)(=O)O	Genome polyprotein NS3 helicase domain	helicase activity, inhibitor, MBHA			70 ± 31 µM
Cc1cc([N+](=O)[O-])cn(CC(=O)c2cc3cc(Cl)ccc3[nH]2)c1=O	RAD52 (Homo sapiens, UniProt P43351)	DNA binding, inhibitor, FRET		25 °C, added: Cy3-dT30-Cy5 1 nM	7.97 ± 0.84 µM
O=C1/C=C/C(=O)N[C@@H](CC2CCCCC2)C(=O)N[C@@H](Cc2ccc(F)cc2)C(=O)N[C@@H](Cc2ccc([N+](=O)[O-])cc2)C(=O)NCCC[C@@H](C(=O)O)N1	SRC SH3-SH2-kinase domain	enzyme activity, inhibitor, Z'-LYTE FRET		Src residues 83-533, added: 50 µM ATP	≤ 0.004 µM
CC(=O)Nc1ccc(S(=O)(=O)N(C)Cc2nc(-c3ccccc3)no2)cc1	Trypanothione synthetase (Trypanosoma brucei, UniProt Q586P2)	enzyme activity, inhibitor			> 50 µM
CCN(Cc1cccc(S(=O)(=O)O)c1)c1ccc(C(=C2C=CC(=[N+](CC)Cc3cccc(S(=O)(=O)O)c3)C=C2)c2ccc(O)cc2S(=O)(=O)O)cc1	Pannexin-1 (Panx1, Mus musculus, UniProt Q9JIP4)	inhibitor			0.27 µM
C=CC(=O)c1nc(C#N)ccc1N1CCCOCC1	Phosphatidylinositol 3,4,5-trisphosphate 5-phosphatase 1, Ptase-C2 domains (INPP5D, Homo sapiens, UniProt Q92835)	enzyme activity, inhibitor			108 µM
Nc1nc(-c2ccc(Br)cc2)cs1	Capsid scaffolding protein, protease domain (Human herpesvirus 8 type P, UniProt Q2HRB6)	protease activity, inhibitor		added: fluorogenic peptide substrate	> 500 µM
CN1CCN(C(=O)c2ccc(-c3ccc4c(c3)/C(=C/c3ccc(N5CCOCC5)cc3)C(=O)N4)cc2)CC1	FGFR3	enzyme activity, inhibitor			0.0065 µM
Cc1nn(-c2ccccc2)nc1CNS(=O)(=O)c1cccc2ccccc12	Trypanothione synthetase (Trypanosoma brucei, UniProt Q586P2)	enzyme activity, inhibitor			> 100 µM
CN(C)CCNC(=O)c1cccc2c(NCCCCc3c(N)nc(N)nc3N)c3ccccc3nc12	Muscleblind-like protein 1, with (CCUG)6 RNA (Homo sapiens, UniProt Q9NR56)	MBNL1-RNA binding, gel mobility shift		100 nM tRNA, added: (CCUG)6 RNA, 350 nM MBNL1	35 ± 3 µM
NC(=O)[C@@H]1CCCNC(=O)[C@H](Cc2ccc(Br)cc2)NC(=O)[C@H](Cc2ccccc2)NC(=O)[C@H](CC2CCCCC2)NC(=O)/C=C/C(=O)N1	SRC SH3-SH2-kinase domain	enzyme activity, inhibitor, Z'-LYTE FRET		Src residues 83-533, added: 50 µM ATP	0.03 ± 0.002 µM
C/C(=N\NC1=NC(=O)CS1)c1ccc2c(c1)sc1nc(=O)c(C#N)cn12	DNA gyrase (gyrA/gyrB, Escherichia coli, UniProt P0AES4+P0AES6)	enzyme activity, inhibitor			1.88 µM
O=C(Nc1cccc(C(=O)Nc2ccc(S(=O)(=O)O)c3cc(S(=O)(=O)O)cc(S(=O)(=O)O)c23)c1)Nc1cccc(C(=O)Nc2ccc(S(=O)(=O)O)c3cc(S(=O)(=O)O)cc(S(=O)(=O)O)c23)c1	Genome polyprotein NS3 helicase domain	helicase activity, molecular beacon helicase		added: RNA substrate	5.1 ± 1.2 µM
COc1ccc(C(=O)Nc2n[nH]c3ccc(NC(=O)C(CCN)c4cccc(Cl)c4)cc23)cc1 (centres unmarked)	Tyrosine-protein kinase HCK, SH2 (HCK, Homo sapiens, UniProt P08631, Q523E/Q524E/Q525I)	enzyme activity, inhibitor			3.1 µM
COc1ccc(CNC(=O)c2sc3nc(OCc4ccncc4)cc(C)c3c2N)cc1	HRH3 (Homo sapiens, UniProt Q9Y5N1)	receptor activity, antagonist			~10 µM
Nc1nc2c(c(=O)[nH]1)[n+](Cc1cc3cc(Cl)ccc3o1)cn2Cc1ccccc1CCP(=O)(O)O	EIF4E (Homo sapiens, UniProt P06730)	cell-free assay, FP			14.7 µM
COc1c(C(=O)/C=C/c2ccc(F)cc2)c(O)c(OC)c2occc12	Cytochrome P450 1B1 (CYP1B1, Homo sapiens, UniProt Q16678)	enzyme activity, inhibitor		15 min, pH 7.4	> 10 µM
CC(=O)NC/C(=C\F)COc1cccc(Cn2c(=S)[nH]c(=O)c3[nH]cnc32)c1	Myeloperoxidase (MPO, Homo sapiens, UniProt P05164)	enzyme activity, inhibitor, fluorescence			0.128 µM
O=S(=O)(Nc1cscn1)c1c(F)cc(NCc2c(F)ccc(F)c2CN2CCC2)cc1F	SCN8A (Homo sapiens, UniProt Q9UQD0)	ion current, inhibitor, automated patch clamp		resting state, held at -120 mV	> 100 µM
C/C=C/C(=O)Nc1ccc2nc(NCCCCCN(C)C)nc(NCCCCCCN(C)C)c2c1	CHD1, chromodomains (Homo sapiens, UniProt O14646)				11 ± 3.1 µM
Cn1c(=O)c2c(nc(CN3CCN(C(=O)C4CC4)CC3)n2Cc2ccccc2)n(C)c1=O	HPGD (Homo sapiens, UniProt P15428)				> 57 µM
Cc1ccc2nc(-c3ccc4nc(-c5ccc(NC(=O)c6ccc7ccccc7c6)cc5)sc4c3)sc2c1S(=O)(=O)O	Genome polyprotein NS3 helicase domain	helicase activity, inhibitor, molecular beacon helicase			2.7 ± 0.7 µM

For quick reference, copied from above:
Structure (SMILES)	target	assay	system	conditions	IC50
COc1ccc(CNC(=O)c2sc3nc(OCc4ccncc4)cc(C)c3c2N)cc1	HRH3 (Homo sapiens, UniProt Q9Y5N1)	receptor activity, antagonist			~10 µM
Nc1nc2c(c(=O)[nH]1)[n+](Cc1cc3cc(Cl)ccc3o1)cn2Cc1ccccc1CCP(=O)(O)O	EIF4E (Homo sapiens, UniProt P06730)	cell-free assay, FP			14.7 µM
